# Measurements collected from several papers.
# Compare with care: the assays were run in different laboratories. ± gives the spread as reported.
# Oprk1: Kappa-type opioid receptor (Oprk1, Rattus norvegicus, UniProt P34975)
# Chain of UniProt P34975 (whole entry, looked up): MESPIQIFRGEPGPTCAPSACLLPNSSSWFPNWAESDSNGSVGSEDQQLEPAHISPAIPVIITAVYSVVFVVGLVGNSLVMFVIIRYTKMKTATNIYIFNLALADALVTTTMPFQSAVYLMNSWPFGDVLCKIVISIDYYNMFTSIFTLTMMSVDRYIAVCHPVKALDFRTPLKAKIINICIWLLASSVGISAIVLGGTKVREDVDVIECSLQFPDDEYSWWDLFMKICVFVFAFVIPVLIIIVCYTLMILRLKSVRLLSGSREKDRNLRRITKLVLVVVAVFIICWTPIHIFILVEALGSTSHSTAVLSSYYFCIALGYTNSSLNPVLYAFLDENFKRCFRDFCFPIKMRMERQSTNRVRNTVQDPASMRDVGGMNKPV
# ampC: Beta-lactamase (ampC, Escherichia coli K-12, UniProt P00811)
# Chain of UniProt P00811 (whole entry, looked up): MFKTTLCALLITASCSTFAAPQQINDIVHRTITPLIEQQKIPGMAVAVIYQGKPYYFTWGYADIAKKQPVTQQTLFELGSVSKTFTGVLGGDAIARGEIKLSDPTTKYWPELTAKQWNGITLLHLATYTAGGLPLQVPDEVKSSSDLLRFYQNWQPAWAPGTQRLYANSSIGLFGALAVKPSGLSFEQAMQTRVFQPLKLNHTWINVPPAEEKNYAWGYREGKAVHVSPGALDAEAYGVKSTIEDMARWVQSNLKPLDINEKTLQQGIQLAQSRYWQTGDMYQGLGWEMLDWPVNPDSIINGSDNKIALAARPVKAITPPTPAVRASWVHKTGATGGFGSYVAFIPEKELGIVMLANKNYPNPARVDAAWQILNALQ
# HTR7: 5-hydroxytryptamine receptor 7 (HTR7, Homo sapiens, UniProt P34969)
# Chain of UniProt P34969 (whole entry, looked up): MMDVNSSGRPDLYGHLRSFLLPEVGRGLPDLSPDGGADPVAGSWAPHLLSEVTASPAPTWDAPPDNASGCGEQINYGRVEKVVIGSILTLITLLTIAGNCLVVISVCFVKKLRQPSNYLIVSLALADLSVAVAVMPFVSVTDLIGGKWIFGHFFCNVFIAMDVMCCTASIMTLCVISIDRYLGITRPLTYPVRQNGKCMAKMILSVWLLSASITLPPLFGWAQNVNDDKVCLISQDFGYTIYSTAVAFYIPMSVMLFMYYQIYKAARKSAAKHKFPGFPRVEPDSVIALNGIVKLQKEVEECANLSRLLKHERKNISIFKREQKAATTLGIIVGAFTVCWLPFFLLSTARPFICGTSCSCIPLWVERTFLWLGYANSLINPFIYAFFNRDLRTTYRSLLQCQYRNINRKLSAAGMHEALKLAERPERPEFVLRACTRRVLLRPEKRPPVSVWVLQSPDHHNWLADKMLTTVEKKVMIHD
# Chain of UniProt P03372 (whole entry, looked up): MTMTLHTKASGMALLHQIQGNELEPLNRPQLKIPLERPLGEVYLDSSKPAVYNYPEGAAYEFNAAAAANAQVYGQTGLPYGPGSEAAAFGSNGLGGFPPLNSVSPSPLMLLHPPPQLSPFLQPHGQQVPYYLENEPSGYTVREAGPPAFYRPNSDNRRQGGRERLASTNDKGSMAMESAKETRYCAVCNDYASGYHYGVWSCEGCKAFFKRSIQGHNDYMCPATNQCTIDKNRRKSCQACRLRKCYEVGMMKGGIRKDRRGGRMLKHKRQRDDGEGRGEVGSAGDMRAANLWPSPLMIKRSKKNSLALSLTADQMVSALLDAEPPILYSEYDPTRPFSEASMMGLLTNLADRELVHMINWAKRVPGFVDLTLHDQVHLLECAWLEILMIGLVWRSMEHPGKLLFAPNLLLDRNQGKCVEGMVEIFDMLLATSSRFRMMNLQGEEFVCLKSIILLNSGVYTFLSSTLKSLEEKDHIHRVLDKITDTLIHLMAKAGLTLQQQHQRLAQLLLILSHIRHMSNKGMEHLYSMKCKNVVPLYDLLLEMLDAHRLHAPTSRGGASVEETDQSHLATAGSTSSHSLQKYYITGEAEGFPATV
# Chain of UniProt P37353 (whole entry, looked up): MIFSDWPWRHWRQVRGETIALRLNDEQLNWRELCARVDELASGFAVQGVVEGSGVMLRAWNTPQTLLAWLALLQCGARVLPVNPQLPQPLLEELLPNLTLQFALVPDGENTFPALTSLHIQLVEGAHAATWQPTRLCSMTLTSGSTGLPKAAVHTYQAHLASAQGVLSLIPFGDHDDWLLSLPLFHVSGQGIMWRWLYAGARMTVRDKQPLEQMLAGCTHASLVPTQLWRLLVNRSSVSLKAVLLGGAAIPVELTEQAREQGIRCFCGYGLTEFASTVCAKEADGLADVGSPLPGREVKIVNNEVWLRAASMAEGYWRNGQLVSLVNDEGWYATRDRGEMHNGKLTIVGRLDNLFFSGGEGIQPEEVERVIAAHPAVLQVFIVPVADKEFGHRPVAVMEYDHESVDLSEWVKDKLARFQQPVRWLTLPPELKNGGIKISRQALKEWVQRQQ
# Chain of UniProt O42275 (whole entry, looked up): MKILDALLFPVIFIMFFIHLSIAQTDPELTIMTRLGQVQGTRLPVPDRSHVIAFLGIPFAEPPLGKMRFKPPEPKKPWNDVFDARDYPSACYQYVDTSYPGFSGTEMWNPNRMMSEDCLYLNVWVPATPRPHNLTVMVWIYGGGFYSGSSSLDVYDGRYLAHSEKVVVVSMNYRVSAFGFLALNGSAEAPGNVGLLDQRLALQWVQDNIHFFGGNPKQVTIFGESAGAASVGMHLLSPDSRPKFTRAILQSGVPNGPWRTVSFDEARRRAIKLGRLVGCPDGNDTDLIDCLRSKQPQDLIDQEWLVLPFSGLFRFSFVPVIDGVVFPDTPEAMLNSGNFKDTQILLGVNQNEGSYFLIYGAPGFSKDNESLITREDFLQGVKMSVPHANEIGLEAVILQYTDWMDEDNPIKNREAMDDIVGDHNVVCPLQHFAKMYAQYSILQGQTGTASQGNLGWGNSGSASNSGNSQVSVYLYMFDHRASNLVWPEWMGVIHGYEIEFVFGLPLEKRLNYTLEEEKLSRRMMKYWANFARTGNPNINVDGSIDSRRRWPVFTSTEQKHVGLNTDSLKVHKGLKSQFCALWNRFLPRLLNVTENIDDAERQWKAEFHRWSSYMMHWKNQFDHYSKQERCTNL
# Chain of UniProt P0C0V0 (whole entry, unmodified, looked up): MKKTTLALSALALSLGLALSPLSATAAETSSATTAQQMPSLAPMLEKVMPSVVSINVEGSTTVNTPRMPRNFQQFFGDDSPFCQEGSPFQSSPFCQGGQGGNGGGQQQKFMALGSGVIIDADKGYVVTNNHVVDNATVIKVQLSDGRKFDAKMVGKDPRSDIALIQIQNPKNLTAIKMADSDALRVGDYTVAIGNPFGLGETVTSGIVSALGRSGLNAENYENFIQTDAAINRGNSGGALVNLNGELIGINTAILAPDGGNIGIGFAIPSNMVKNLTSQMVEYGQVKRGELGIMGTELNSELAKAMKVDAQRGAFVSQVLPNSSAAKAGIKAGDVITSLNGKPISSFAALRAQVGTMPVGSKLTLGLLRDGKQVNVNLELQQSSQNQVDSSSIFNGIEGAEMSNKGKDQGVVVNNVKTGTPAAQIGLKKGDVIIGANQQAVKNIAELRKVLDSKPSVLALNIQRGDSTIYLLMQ
# Chain of UniProt P00691 (whole entry, looked up): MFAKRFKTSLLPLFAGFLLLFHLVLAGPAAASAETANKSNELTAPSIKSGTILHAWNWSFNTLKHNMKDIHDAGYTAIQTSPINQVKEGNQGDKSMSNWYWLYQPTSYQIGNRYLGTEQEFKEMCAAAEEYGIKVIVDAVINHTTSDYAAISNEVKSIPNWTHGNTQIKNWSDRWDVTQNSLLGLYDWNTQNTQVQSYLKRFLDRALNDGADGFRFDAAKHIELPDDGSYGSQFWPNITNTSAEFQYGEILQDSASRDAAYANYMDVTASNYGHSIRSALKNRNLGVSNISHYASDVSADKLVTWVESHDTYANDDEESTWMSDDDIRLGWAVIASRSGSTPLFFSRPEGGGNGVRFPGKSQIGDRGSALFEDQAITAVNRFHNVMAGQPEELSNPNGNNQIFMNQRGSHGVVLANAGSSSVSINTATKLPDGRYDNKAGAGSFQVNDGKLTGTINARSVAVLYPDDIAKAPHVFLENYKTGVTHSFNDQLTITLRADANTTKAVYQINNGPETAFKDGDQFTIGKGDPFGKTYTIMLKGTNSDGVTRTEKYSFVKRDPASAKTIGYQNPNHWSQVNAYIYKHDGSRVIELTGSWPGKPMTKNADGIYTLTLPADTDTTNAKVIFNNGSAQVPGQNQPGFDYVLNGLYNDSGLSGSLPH
# Chain of UniProt P46098 (whole entry, looked up): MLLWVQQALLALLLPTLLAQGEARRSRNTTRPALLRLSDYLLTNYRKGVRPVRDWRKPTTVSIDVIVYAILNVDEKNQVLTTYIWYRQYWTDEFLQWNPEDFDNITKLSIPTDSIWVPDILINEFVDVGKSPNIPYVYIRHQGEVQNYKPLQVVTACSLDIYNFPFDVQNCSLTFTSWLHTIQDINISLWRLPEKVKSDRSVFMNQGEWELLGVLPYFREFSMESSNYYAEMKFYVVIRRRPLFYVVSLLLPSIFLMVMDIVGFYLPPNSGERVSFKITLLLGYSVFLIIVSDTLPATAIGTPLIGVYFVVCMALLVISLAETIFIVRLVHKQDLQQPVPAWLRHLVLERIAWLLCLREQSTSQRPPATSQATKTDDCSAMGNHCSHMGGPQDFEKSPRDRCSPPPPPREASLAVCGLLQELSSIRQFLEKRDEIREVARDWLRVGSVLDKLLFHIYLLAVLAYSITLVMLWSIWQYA
# Chain of UniProt A0R016 (whole entry, looked up): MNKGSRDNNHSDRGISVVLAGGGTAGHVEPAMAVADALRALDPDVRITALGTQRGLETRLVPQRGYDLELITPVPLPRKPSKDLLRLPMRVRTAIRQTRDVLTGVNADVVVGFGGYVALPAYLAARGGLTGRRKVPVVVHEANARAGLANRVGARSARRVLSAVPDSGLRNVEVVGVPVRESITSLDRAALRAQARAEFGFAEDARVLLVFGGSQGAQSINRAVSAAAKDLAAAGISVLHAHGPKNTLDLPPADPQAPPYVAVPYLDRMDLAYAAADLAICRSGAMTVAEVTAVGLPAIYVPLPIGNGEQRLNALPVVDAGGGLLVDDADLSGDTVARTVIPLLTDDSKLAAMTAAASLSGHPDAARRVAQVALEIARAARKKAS
Compound,target,test,test system,conditions,scale,measurement,result
CCN(Cc1ccccc1)C(=O)CCc1nc(CN2CCN(C(=O)Cc3ccc(OC)c(OC)c3)CC2)no1,"Sodium channel protein type 11 subunit alpha (Scn11a, Rattus norvegicus, UniProt O88457)",whole-cell patch clamp,rat DRG neurons,300 nM,,V1/2 of activation,-39.6 ± 1.43 mV
N=C(N)NCCC[C@@H]1NC(=O)[C@H](CCCNC(=N)N)NC(=O)[C@H](NC(=O)[C@H](Cc2ccccc2)NC(=O)CNC(=O)CNC(=O)[C@H](Cc2ccccc2)NCc2ccccc2)CC(=O)NC[C@@H](C(=O)N[C@@H](CCCNC(=N)N)C(=O)N2CCC[C@H]2C(=O)N[C@@H](CCCCN)C(N)=O)NC1=O,Oprk1,binding,,,reference: zyklophin,relative affinity,1.4
CC(=O)NC(Cc1ccc(Br)c(Cl)c1)C(=O)N[C@@H](C)C(=O)N1CCC[C@H]1C(=O)N1CCC[C@H]1C(=O)N[C@@H](CCC(=O)O)C(=O)N[C@@H](Cc1c[nH]cn1)C(=O)N[C@@H](CO)C(=O)N[C@H](C(=O)N[C@@H](C)C(N)=O)[C@@H](C)OP(=O)(O)O (stereo partly drawn),"CHUK (Homo sapiens, UniProt O15111)",,,10 µM,,inhibition,4.03 ± 0.11%
CC(C)[C@@H]1NC(=O)[C@H](CCC(N)=O)NC(=O)[C@@H](Cc2ccc(O)cc2)NC(=O)CSC[C@@H](C(N)=O)NC(=O)[C@H](CC(=O)O)NC(=O)[C@H](CCC(=O)O)NC(=O)[C@H](Cc2c[nH]c3ccccc23)NC(=O)[C@@H]2CCCN2C(=O)[C@H](CO)N(C)C(=O)[C@H](C)NC(=O)[C@H](Cc2c[nH]c3ccccc23)NC(=O)[C@H](Cc2c[nH]c3ccccc23)NC(=O)[C@H](C(C)C)NC(=O)[C@H]([C@@H](C)O)NC1=O,"2,3-bisphosphoglycerate-independent phosphoglycerate mutase (gpmI, Staphylococcus aureus, UniProt Q6GIL5)","thermal stability, thermal shift",,,,Tm,62.4 °C
CC1C=CC(C)C(C(=O)O)C1C(=O)O (stereo not drawn),ampC,,,,,ligand efficiency,0.33
CC(=O)N[C@@H](CC(C)C)C(=O)N[C@@H](CCC(=O)O)C(=O)N[C@@H](Cc1c[nH]cn1)C(=O)N[C@@H](CC(=O)O)C(=O)Nc1ccc2c(C)cc(=O)oc2c1,"Caspase-4 (Casp4, Mus musculus, UniProt P70343)",substrate,,concentration not given,,Vmax,1190 ± 30.8 RFU/min
CC(=O)N(C)[C@@H](Cc1ccccc1)C(=O)N[C@@H](Cc1ccccc1)C(=O)N[C@@H](Cc1c[nH]c2ccccc12)C(=O)N[C@@H](CCCNC(=N)N)C(=O)N[C@@H](CC(C)C)C(=O)N[C@@H](CCCNC(=N)N)C(=O)N[C@@H](CCCNC(=N)N)C(=O)N[C@H](C)C(=O)N[C@@H](CCCNC(=N)N)C(=O)N1CCC[C@H]1C(=O)N[C@@H](CCCCN)C(N)=O,Oprk1,agonist,CHO cells,10 µM,reference: dynorphin A(1-13) amide,adenylyl cyclase activity,105 ± 16%
C[N+]1([O-])CCN(C2=Nc3cc(Cl)ccc3Nc3ccccc32)CC1,"CHRM3 (Homo sapiens, UniProt P20309, A239G/Y149C)","calcium signal, agonist, FLIPR",,,reference: clozapine N-oxide,Emax,100%
Cc1cc(O)cc(C)c1C[C@@H]1NC(=O)[C@H](CCCCN)NC(=O)[C@H](Cc2ccccc2)NC(=O)[C@@H](CCCCNC(=N)N)NC1=O,"mu opioid receptor, guinea pig",antagonist,guinea pig ileum,,,Ke,5.16 ± 1.24 nM
C[C@]12CC[C@@H]3c4cc(Cl)c(O)c(Cl)c4CC[C@H]3[C@@H]1CCC2=O,"AKR1C2 (Homo sapiens, UniProt P52895)","enzyme activity, inhibitor, absorbance",,"10 µM, pH 9",,inhibition,23.4%
CC(C)P(=S)(NP(=[Se])(C(C)C)C(C)C)C(C)C,"Alpha-amylase (Bacillus subtilis, UniProt P00691)",fluorescence quenching,,"concentration not given, 310 K",,number of binding sites,0.73 ± 0.05
COc1cc(C=O)ccc1OCc1cccc(CO)n1,"Hemoglobin subunit alpha, with beta chain (HBA1, Homo sapiens, UniProt P69905)",binding,,low concentration,,time to equilibrium,12 to 20 h
CC(=O)N[C@H]1[C@@H](OP(=O)(O)OP(=O)(O)OC/C=C(/C)CC/C=C(/C)CC/C=C(/C)CC/C=C(/C)CC/C=C(/C)CC/C=C(/C)CC/C=C(/C)CC/C=C(/C)CC/C=C(\C)CC/C=C(\C)CCC=C(C)C)O[C@H](CO)[C@@H](O)[C@@H]1O[C@H](C)C(=O)N[C@@H](C)C(=O)N[C@H](CCC(=O)N[C@@H](CCCCNC(=O)OCCCCCCNC(=S)Nc1ccc(NS(=O)(=O)c2cccc3c(N(C)C)cccc23)cc1)C(=O)N[C@H](C)C(=O)N[C@H](C)C(=O)O)C(=O)O,"UDP-N-acetylglucosamine--N-acetylmuramyl-(pentapeptide) pyrophosphoryl-undecaprenol N-acetylglucosamine transferase (murG, Mycolicibacterium smegmatis, UniProt A0R016)",substrate,,added: UDP-GlcNAc 62.5 µM,,Km,25 ± 3 µM
COc1ccc(Nc2c3c(nc4ccccc24)CCC(C)C3)nc1 (stereo not drawn),"ache (Electrophorus electricus, UniProt O42275)","enzyme activity, inhibitor, Ellman",,100 µM,,inhibition,23.8%
"CC1(CCN2CCc3ccccc3C2)Cc2cc(Cl)ccc2C1=O (single isomer, unassigned)",HTR7,"β-arrestin recruitment, agonist, Tango",,,,Hill coefficient,1 ± 0.1
CC[C@H](C)[C@H](NC(=O)[C@H](CCC(N)=O)NC(=O)[C@H](CC(C)C)NC(=O)[C@@H](NC(=O)CNC(=O)[C@H](Cc1ccc(O)cc1)NC(=O)[C@H](CC(=O)O)NC(=O)[C@@H](NC(=O)[C@H](CO)NC(=O)CNC(=O)[C@H](CC(=O)O)NC(=O)[C@@H](NC(=O)[C@H](CC(N)=O)NC(=O)[C@H](CCCNC(=N)N)NC(=O)[C@H](CC(N)=O)NC(=O)[C@@H](NC(=O)[C@H](C)NC(=O)[C@H](CCC(N)=O)NC(=O)[C@@H](NC(=O)[C@H](CC(N)=O)NC(=O)[C@H](Cc1ccccc1)NC(=O)[C@H](CC(N)=O)NC(=O)[C@H](CO)NC(=O)[C@H](CCC(=O)O)NC(=O)[C@H](Cc1ccccc1)NC(=O)[C@H](CCCCN)NC(=O)[C@H](C)NC(=O)[C@H](C)NC(=O)[C@H](CO)NC(=O)[C@@H](NC(=O)[C@H](Cc1c[nH]c2ccccc12)NC(=O)[C@H](CC(N)=O)NC(=O)CNC(=O)[C@H](CC(C)C)NC(=O)[C@H](CO)NC(=O)[C@H](Cc1ccc(O)cc1)NC(=O)CNC(=O)[C@H](CCCNC(=N)N)NC(=O)[C@H](Cc1ccc(O)cc1)NC(=O)[C@H](CC(N)=O)NC(=O)[C@@H](N)CC(=O)O)C(C)C)[C@@H](C)O)[C@@H](C)O)[C@@H](C)O)[C@@H](C)O)[C@@H](C)CC)C(=O)O,"Periplasmic serine endoprotease DegP (degP, Escherichia coli, UniProt P0C0V0, S236A)","oligomer formation, sedimentation velocity",,"30 µM, added: protein 20 µM",,24-mers fraction,7%
NCCc1c[nH]c2ccc(C(N)=O)cc12,HTR7,cAMP production,HEK293 expressing human 5-HT7R,,,Hill coefficient,> 1
C[C@]1(COC(=O)c2ccc(O)c(O)c2)[C@H](C(=O)O)N2C(=O)/C(=C/c3ccccn3)[C@H]2S1(=O)=O,"OXA-23 (Acinetobacter baumannii, UniProt Q9L4P2)","enzyme activity, inhibitor, absorbance",,,,kinact/KI,57000 M⁻¹ s⁻¹
OB(O)c1ccc(OCc2ccccc2)nc1F,ampC,,,,,ligand efficiency,0.5
CN1C(=O)C2(Cc3ccc(CC45SSC(CO)(C(=O)N4C)N(C)C5=O)cc3)SSC1(CO)C(=O)N2C (racemic),"Histone acetyltransferase p300, CH1 domain (EP300, Homo sapiens, UniProt Q09472)",SPR,,p300 CH1 domain GST fusion,reference: without DTT over 100 µM DTT,affinity loss of oxidized form,36 fold
Nc1ncnc2c1ncn2C1OC(COc2ccc(CCC(=O)c3ccccc3C(=O)O)cc2)C(O)C1O (stereo not drawn),"2-succinylbenzoate--CoA ligase (menE, Escherichia coli, UniProt P37353)",isothermal titration calorimetry,,concentration not given,,binding,no binding
Cn1ccc(-c2ccc(Cn3cc(C(=O)N[C@H]4CCCC[C@@H]4O)c4c(F)cc(F)cc43)cn2)n1,"CHRM1 (Homo sapiens, UniProt P11229)","calcium mobilization, positive allosteric modulator",CHO,added: acetylcholine EC20,reference: acetylcholine maximum,maximal response,86 ± 1%
CC[C@H](C)[C@H](NC(=O)[C@H](CCCNC(=N)N)NC(=O)[C@H](CO)NC(=O)[C@@H](NC(=O)[C@H](CC(=O)O)NC(=O)[C@H](CC(=O)O)NC(=O)CCCCCNC(=O)c1ccc2c(c1)C(=O)OC21c2ccc(O)cc2Oc2cc(O)ccc21)[C@@H](C)O)C(=O)N[C@@H](CCC(=O)O)C(=O)N[C@@H](CCC(=O)O)C(=O)N[C@H](C(=O)N[C@@H](CC(=O)O)C(=O)O)C(C)C,"STUB1 (Homo sapiens, UniProt Q9UNE7)",fluorescence polarization,,pH 7.4,reference: wild-type Hsp90alpha tracer,affinity increase,≥ 2 fold
CNC(=O)c1cccc(-c2ccc(O[C@H]3O[C@H](CO)[C@@H](O)[C@H](O)[C@@H]3O)cc2)c1,"Type 1 fimbrin D-mannose specific adhesin, lectin domain (fimH, Escherichia coli K-12, UniProt P08191)","binding, differential scanning fluorimetry",,,higher = stronger binding,melting temperature,73.1 °C
CCC(C)Sc1nc2c([nH]1)c(=S)n(C)c(=O)n2C (stereo not drawn),"Estrogen receptor (ESR1, Homo sapiens, UniProt P03372)","reporter gene, ERE luciferase",T47D-KBluc,"10 µM, 24 h, added: estradiol 5 nM",reference: maximal luciferase activity,reporter activity,85%
CN1CCN(c2nc3ccccc3nc2Cl)CC1,"HTR3A (Homo sapiens, UniProt P46098)","agonist response, two-electrode voltage clamp",Xenopus oocytes,concentration not given,,duration of inhibition,> 20 min
CN(C)CCCSC(=S)N1CCN(C(=O)/C=C/c2coc3ccccc3c2=O)CC1,"Nucleoprotein (N, Tomato spotted wilt virus, UniProt P25999, Y184A)","binding, microscale thermophoresis",,concentration not given,reference: wild type over mutant,fold reduction in affinity,~135
O=C(/C=C/c1ccc(F)cc1)c1cc2ccccc2oc1=O,"Beta-secretase 1 (BACE1, Homo sapiens, UniProt P56817)","enzyme activity, inhibitor, fluorescence",,10 µM,,remaining activity,81.2%
CC[C@H](C)[C@H](NC(=O)[C@H](CC(=O)O)NC(=O)CNC(=O)[C@@H](NC(=O)[C@@H](NC(=O)[C@H](CCC(=O)O)NC(=O)CNC(=O)CCCCCNC(=O)CCCC[C@@H]1SC[C@@H]2NC(=O)N[C@@H]21)[C@@H](C)CC)[C@@H](C)CC)C(=O)N[C@@H](CCCNC(=N)N)C(=O)N[C@@H](CCC(N)=O)C(=O)N[C@@H](C)C(=O)N[C@@H](Cc1c[nH]cn1)C(=O)N[C@@H](CO)C(=O)N[C@@H](CC(=O)N[C@@H]1O[C@H](CO)[C@@H](O[C@@H]2O[C@H](CO)[C@@H](O[C@@H]3O[C@H](CO[C@H]4O[C@H](CO[C@H]5O[C@H](CO)[C@@H](O)[C@H](O)[C@@H]5O[C@H]5O[C@H](CO)[C@@H](O)[C@H](O)[C@@H]5O)[C@@H](O)[C@H](O[C@H]5O[C@H](CO)[C@@H](O)[C@H](O)[C@@H]5O[C@H]5O[C@H](CO)[C@@H](O)[C@H](O)[C@@H]5O)[C@@H]4O)[C@@H](O)[C@H](O[C@H]4O[C@H](CO)[C@@H](O)[C@H](O)[C@@H]4O[C@H]4O[C@H](CO)[C@@H](O)[C@H](O)[C@@H]4O[C@H]4O[C@H](CO)[C@@H](O)[C@H](O)[C@@H]4O)[C@@H]3O)[C@H](O)[C@H]2NC(C)=O)[C@H](O)[C@H]1NC(C)=O)C(=O)N[C@H](C(=O)N[C@@H](CO)C(=O)N[C@@H](CCCNC(=N)N)C(=O)N[C@@H](C)C(=O)N[C@@H](CCCCN)C(=O)N[C@@H](Cc1c[nH]c2ccccc12)C(=O)N[C@@H](CC(N)=O)C(N)=O)[C@@H](C)CC,antibody 10-1074,SPR,,"concentration not given, 25 °C",,binding,no binding
Nc1nc(N)c2ncn([C@@H]3O[C@@H]4COP(=O)(O)O[C@H]5[C@@H](O)[C@H](n6cnc7c(N)ncnc76)O[C@@H]5COP(=O)(O)O[C@H]4[C@H]3O)c2n1,ydaO riboswitch wild type (Bacillus subtilis),competition gel-shift,,concentration not given,"reference: c-di-AMP, higher = weaker binding",binding affinity fold loss,650

# Repeated from above:
Compound,target,test,test system,conditions,scale,measurement,result
CC[C@H](C)[C@H](NC(=O)[C@H](CCC(N)=O)NC(=O)[C@H](CC(C)C)NC(=O)[C@@H](NC(=O)CNC(=O)[C@H](Cc1ccc(O)cc1)NC(=O)[C@H](CC(=O)O)NC(=O)[C@@H](NC(=O)[C@H](CO)NC(=O)CNC(=O)[C@H](CC(=O)O)NC(=O)[C@@H](NC(=O)[C@H](CC(N)=O)NC(=O)[C@H](CCCNC(=N)N)NC(=O)[C@H](CC(N)=O)NC(=O)[C@@H](NC(=O)[C@H](C)NC(=O)[C@H](CCC(N)=O)NC(=O)[C@@H](NC(=O)[C@H](CC(N)=O)NC(=O)[C@H](Cc1ccccc1)NC(=O)[C@H](CC(N)=O)NC(=O)[C@H](CO)NC(=O)[C@H](CCC(=O)O)NC(=O)[C@H](Cc1ccccc1)NC(=O)[C@H](CCCCN)NC(=O)[C@H](C)NC(=O)[C@H](C)NC(=O)[C@H](CO)NC(=O)[C@@H](NC(=O)[C@H](Cc1c[nH]c2ccccc12)NC(=O)[C@H](CC(N)=O)NC(=O)CNC(=O)[C@H](CC(C)C)NC(=O)[C@H](CO)NC(=O)[C@H](Cc1ccc(O)cc1)NC(=O)CNC(=O)[C@H](CCCNC(=N)N)NC(=O)[C@H](Cc1ccc(O)cc1)NC(=O)[C@H](CC(N)=O)NC(=O)[C@@H](N)CC(=O)O)C(C)C)[C@@H](C)O)[C@@H](C)O)[C@@H](C)O)[C@@H](C)O)[C@@H](C)CC)C(=O)O,"Periplasmic serine endoprotease DegP (degP, Escherichia coli, UniProt P0C0V0, S236A)","oligomer formation, sedimentation velocity",,"30 µM, added: protein 20 µM",,24-mers fraction,7%
Nc1nc(N)c2ncn([C@@H]3O[C@@H]4COP(=O)(O)O[C@H]5[C@@H](O)[C@H](n6cnc7c(N)ncnc76)O[C@@H]5COP(=O)(O)O[C@H]4[C@H]3O)c2n1,ydaO riboswitch wild type (Bacillus subtilis),competition gel-shift,,concentration not given,"reference: c-di-AMP, higher = weaker binding",binding affinity fold loss,650
